Measurements from different studies.
A part holds a random share of what one study measured. Changes are numbered by the printed parent chain.

Series 1
Target: Histone acetyltransferase KAT6A, both winged helices, GST fusion (KAT6A, Homo sapiens, UniProt Q92794, residues 1-181)
Method: protein binding microarray
Molecule type: double-stranded DNA, one strand shown
Sample: in vitro
Tested at: not given
Notes: 8-mer, flanks averaged, mean of 2 arrays, mostly near background
Relative to: not given
Direction: higher = stronger binding
Endpoint: E-score
Target sequence (chain): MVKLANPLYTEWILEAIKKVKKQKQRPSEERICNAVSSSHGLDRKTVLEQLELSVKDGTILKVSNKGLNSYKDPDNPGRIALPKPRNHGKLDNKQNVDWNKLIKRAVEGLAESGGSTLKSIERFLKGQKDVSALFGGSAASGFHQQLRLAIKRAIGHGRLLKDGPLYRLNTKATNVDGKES
ACAGTTCT: 0.0831
CTTTACCC: -0.0152
ACAGTTGA: -0.0835
CCAAAGCG: 0.255
CCAGCGTC: -0.0566
ACACTGGG: -0.0823

Series 2
Target: PABPC1L2, full length, GST fusion (mouse, UniProt A0ABA7IW68)
Method: RNAcompete
Molecule type: RNA
Sample: in vitro
Tested at: 20 nM
Notes: 7-mer, probes averaged, single round
Relative to: mean of 7-mers
Direction: higher = stronger binding
Endpoint: 7-mer Z-score
Construct (chain): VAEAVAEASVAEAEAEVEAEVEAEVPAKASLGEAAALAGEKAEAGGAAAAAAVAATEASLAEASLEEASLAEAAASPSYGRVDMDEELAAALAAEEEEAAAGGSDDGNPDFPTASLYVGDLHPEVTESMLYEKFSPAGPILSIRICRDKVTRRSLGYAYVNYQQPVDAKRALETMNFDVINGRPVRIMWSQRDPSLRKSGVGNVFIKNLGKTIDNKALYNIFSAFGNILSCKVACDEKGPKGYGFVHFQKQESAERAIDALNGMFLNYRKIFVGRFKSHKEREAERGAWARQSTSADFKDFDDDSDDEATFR
GAUUUUA: -0.164
CAUAAAU: 2.66
GCAGUGG: 0.0334
CUCUGAG: -0.264
AGGGGGG: 0.441
AGCAGUC: 0.0189
GAAGGUU: -0.135

Series 3
Target: CCNA1, cyclin fold, Cln2 fusion (human)
Method: yeast growth competition, sequencing
Sample: yeast
Notes: weak parent motif
Relative to: not given
Direction: higher = stronger binding
Endpoint: normalised enrichment score
Starting sequence: PKMYT1 docking peptide (human); SFEPRNLLSLFED; partner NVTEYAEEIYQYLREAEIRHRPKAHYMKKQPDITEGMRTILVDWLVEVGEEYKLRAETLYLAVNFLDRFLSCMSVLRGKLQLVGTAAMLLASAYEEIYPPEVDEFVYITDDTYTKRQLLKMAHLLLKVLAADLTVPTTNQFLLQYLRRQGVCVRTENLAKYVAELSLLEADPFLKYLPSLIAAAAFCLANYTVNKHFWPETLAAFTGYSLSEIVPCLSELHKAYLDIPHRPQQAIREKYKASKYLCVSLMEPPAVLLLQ
SFEPRNLLSLFRD [E12R]: -0.0735
SQEPRNLLSLFED [F2Q]: 0.167
SFEPRNLLSLRED [F11R]: 0.201
SSEPRNLLSLFED [F2S]: -0.0111

Mixed results
PhoQ, residues 284 288 289 292 302 303 SSCLAV
fold induction (PhoP, residues 12 14 15 18 19 AGCRL (Escherichia coli, UniProt P23836); Sort-seq, measured: YFP reporter; E. coli; PhoQ-PhoP variant library, with: 10 µM Mg2+; relative to: high Mg2+ state, higher = stronger signaling): 8.63

Excerpt of the above (mixed results):
PhoQ, residues 284 288 289 292 302 303 SSCLAV
fold induction (PhoP, residues 12 14 15 18 19 AGCRL (Escherichia coli, UniProt P23836); Sort-seq, measured: YFP reporter; E. coli; PhoQ-PhoP variant library, with: 10 µM Mg2+; relative to: high Mg2+ state, higher = stronger signaling): 8.63
